{"data": "Published values from different studies", "note": "A part holds a random share of what one study measured. Values joined by “and” are separate records of one study, mostly repeats; a detail may differ. ± marks the error that the study gave.", "UniProt Q16566, sequence (whole entry, looked up)": "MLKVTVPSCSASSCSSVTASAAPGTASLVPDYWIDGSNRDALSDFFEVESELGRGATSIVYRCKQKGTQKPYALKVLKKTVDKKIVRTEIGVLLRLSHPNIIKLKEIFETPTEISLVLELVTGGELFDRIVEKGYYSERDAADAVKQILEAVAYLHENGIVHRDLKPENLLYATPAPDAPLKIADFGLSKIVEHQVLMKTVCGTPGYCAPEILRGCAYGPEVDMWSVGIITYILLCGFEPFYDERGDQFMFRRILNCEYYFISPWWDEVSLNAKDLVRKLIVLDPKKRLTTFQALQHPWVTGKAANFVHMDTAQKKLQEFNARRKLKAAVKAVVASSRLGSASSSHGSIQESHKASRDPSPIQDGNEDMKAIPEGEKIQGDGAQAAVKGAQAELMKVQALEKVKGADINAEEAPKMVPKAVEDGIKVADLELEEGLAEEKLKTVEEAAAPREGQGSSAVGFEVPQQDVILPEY", "UniProt Q9Y2I7, sequence (whole entry, looked up)": "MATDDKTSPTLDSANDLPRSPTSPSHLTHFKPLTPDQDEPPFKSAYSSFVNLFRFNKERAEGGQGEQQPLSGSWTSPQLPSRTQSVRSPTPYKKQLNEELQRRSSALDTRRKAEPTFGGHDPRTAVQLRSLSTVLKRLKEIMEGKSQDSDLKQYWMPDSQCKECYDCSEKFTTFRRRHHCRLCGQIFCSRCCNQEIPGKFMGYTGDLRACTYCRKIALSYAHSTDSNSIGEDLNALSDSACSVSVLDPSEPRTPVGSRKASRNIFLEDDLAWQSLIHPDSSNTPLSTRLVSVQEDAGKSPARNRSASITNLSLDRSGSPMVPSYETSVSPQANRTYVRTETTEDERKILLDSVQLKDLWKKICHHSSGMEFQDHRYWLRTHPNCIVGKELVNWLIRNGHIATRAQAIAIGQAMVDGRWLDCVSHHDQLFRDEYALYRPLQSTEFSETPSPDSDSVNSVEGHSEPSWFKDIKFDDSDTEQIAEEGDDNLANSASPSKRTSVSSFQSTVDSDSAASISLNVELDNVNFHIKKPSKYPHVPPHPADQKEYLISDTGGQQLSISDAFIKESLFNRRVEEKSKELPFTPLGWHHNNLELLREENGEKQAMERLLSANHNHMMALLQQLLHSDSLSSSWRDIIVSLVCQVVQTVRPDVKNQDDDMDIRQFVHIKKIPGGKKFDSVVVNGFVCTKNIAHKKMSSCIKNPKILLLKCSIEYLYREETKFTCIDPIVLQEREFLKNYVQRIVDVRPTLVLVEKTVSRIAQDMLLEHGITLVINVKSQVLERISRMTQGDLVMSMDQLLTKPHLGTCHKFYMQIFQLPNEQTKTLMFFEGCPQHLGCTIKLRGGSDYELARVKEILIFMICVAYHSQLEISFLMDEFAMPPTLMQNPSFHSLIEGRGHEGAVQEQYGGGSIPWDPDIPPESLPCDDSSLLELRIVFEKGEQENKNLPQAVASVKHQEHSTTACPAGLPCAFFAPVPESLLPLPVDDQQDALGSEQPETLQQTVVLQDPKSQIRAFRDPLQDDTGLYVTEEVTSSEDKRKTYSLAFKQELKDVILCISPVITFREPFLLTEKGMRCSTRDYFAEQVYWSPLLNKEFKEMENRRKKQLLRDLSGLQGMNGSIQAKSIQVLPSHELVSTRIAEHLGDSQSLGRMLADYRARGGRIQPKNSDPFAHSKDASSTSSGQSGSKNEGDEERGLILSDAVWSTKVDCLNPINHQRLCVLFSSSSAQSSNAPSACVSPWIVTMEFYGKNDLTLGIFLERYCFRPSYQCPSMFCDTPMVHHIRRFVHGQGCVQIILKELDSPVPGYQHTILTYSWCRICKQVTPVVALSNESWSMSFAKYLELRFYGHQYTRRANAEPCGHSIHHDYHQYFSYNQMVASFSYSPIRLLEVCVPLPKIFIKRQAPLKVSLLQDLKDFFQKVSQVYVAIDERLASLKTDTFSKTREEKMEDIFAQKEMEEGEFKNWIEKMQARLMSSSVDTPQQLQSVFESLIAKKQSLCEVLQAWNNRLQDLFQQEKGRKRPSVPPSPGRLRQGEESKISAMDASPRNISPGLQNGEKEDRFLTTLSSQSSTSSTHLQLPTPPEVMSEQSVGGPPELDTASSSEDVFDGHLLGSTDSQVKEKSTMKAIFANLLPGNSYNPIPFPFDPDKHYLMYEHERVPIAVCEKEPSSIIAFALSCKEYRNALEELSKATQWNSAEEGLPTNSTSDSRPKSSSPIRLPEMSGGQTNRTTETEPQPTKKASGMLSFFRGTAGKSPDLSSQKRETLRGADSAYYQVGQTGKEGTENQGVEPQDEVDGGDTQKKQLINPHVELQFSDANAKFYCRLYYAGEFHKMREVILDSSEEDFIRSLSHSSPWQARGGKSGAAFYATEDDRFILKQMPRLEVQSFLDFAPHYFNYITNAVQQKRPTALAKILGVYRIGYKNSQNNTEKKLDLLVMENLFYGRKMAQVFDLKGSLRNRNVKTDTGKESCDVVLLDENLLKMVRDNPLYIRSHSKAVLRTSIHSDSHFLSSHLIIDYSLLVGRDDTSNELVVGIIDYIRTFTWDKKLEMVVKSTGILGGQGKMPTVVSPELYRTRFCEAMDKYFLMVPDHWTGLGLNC", "UniProt O94921, sequence (whole entry, looked up)": "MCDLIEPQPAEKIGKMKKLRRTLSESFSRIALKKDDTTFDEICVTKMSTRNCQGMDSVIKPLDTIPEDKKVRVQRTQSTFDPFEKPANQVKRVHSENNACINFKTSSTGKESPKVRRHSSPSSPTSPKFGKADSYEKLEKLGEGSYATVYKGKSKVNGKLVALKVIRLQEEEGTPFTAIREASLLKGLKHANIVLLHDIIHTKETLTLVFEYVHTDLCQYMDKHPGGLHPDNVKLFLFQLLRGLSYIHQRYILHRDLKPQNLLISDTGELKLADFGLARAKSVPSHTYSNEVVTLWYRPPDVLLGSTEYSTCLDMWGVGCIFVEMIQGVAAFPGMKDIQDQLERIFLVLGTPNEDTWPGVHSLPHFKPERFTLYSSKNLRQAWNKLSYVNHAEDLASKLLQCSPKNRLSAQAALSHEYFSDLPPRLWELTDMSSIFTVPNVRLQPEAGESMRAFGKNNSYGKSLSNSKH", "UniProt P19525, sequence (whole entry, looked up)": "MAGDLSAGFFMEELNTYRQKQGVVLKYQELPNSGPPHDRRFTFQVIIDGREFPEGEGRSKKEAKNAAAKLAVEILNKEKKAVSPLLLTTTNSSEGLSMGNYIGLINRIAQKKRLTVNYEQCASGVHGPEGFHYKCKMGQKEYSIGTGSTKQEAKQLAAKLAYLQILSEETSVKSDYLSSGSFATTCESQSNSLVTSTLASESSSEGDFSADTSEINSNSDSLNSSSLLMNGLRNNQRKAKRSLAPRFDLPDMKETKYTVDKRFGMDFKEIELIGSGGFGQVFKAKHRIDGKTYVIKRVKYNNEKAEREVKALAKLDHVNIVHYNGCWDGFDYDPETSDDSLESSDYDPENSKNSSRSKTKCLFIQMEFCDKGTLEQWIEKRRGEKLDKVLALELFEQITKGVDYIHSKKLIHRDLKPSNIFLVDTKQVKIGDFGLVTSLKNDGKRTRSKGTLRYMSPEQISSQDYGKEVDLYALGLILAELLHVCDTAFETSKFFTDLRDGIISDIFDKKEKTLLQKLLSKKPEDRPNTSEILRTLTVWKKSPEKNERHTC"}
{"data": "Set 1", "Structure (SMILES)": "C[C@@H]1CN(c2ccc(-c3cc(C(=O)NCCOCCOCCOCCOCCOCCOCCNC(=O)/C=C/c4[nH]cc(C(=O)N[C@@H](CC(N)=O)c5ccc(F)c(Cl)c5)c4-c4ccc(Cl)cc4F)ccc3F)cc2NC(=O)c2ccc(F)cc2C(F)(F)F)C[C@H](C)N1C", "observed": "thermal unfolding", "method": "differential scanning fluorimetry", "tested at": "5.5 µM", "direction": "higher = more unfolded", "DCAF1": "DDB1- and CUL4-associated factor 1 (DCAF1, Homo sapiens, UniProt Q9Y4B6)", "WDR5": "WD repeat-containing protein 5 (WDR5, Homo sapiens, UniProt P61964)", "UniProt Q9Y4B6, sequence (whole entry, looked up)": "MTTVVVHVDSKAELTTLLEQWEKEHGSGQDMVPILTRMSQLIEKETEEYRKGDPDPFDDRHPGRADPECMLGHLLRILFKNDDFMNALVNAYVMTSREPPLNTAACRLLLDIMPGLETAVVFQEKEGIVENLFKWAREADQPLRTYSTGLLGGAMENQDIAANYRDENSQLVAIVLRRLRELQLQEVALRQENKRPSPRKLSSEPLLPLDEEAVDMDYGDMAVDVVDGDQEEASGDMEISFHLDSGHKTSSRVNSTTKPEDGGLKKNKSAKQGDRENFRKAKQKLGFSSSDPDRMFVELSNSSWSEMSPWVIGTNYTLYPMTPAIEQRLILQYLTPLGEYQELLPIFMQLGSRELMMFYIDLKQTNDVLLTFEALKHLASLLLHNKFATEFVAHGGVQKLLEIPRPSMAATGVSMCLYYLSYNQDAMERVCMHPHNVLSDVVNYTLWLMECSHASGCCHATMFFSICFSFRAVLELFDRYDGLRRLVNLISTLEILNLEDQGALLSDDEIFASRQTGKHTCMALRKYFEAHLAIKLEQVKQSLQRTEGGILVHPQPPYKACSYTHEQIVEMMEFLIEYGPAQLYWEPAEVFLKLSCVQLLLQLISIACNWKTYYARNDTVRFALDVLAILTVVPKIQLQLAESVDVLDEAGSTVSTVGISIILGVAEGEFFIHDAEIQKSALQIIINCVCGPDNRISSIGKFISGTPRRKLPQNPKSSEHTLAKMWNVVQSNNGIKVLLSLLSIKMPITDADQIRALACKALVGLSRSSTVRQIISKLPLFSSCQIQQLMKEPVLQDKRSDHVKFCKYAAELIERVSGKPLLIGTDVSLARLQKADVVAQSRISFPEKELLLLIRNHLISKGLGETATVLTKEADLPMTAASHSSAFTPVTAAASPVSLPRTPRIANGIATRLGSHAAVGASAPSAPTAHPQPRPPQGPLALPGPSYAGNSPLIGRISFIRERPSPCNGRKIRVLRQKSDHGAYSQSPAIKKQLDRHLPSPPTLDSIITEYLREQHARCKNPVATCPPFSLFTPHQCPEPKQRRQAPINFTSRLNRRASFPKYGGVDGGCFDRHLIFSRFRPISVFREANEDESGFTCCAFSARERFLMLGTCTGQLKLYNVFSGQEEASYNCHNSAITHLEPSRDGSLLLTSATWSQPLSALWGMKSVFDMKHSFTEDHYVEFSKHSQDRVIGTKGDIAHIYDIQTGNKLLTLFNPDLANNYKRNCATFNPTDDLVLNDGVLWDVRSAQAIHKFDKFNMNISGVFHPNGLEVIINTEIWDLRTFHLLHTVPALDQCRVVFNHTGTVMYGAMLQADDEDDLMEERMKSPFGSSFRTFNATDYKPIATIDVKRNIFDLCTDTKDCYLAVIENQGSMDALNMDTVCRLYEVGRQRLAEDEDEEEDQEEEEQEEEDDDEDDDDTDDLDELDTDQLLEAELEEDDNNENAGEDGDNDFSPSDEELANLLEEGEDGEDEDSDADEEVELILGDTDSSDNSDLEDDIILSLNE"}
{"target": "DCAF1", "conditions": "44 °C", "SYPRO Orange fluorescence": "14100 a.u."}
{"target": "DCAF1", "conditions": "36.6 °C", "SYPRO Orange fluorescence": "10600 a.u."}
{"target": "WDR5", "conditions": "61.21 °C", "SYPRO Orange fluorescence": "15100 a.u."}
{"target": "WDR5", "conditions": "25 °C", "SYPRO Orange fluorescence": "13200 a.u."}
{"target": "DCAF1", "conditions": "78.21 °C", "SYPRO Orange fluorescence": "41200 a.u."}
{"target": "WDR5", "conditions": "66.21 °C", "SYPRO Orange fluorescence": "17800 a.u."}
{"target": "DCAF1", "conditions": "72.41 °C", "SYPRO Orange fluorescence": "46100 a.u."}
{"data": "Set 2", "SMILES": "O=C(Nc1ccccc1)Nc1cccc(Oc2ccc3nccn3n2)c1"}
{"target": "TXK (Homo sapiens, UniProt P42681)", "test": "binding, competition with immobilised ligand", "conditions": "1 µM", "remaining binding": "100%"}
{"target": "KIT (Homo sapiens, UniProt P10721)", "test": "binding, competition with immobilised ligand", "conditions": "1 µM", "remaining binding": "0%"}
{"target": "ERBB3 (Homo sapiens, UniProt P21860)", "test": "binding, competition with immobilised ligand", "conditions": "1 µM", "remaining binding": "47%"}
{"target": "EPHA2 (Homo sapiens, UniProt P29317)", "test": "binding, competition with immobilised ligand", "conditions": "1 µM", "remaining binding": "70%"}
{"target": "EIF2AK2 (Homo sapiens, UniProt P19525)", "test": "binding", "conditions": "1 µM", "remaining binding": "100%"}
{"target": "CDK14 (Homo sapiens, UniProt O94921)", "test": "binding, competition with immobilised ligand", "conditions": "1 µM", "remaining binding": "100%"}
{"target": "SBK3 (Homo sapiens, UniProt P0C264)", "test": "binding", "conditions": "1 µM", "remaining binding": "60%"}
{"target": "PRKCD (Homo sapiens, UniProt Q05655)", "test": "binding", "conditions": "1 µM", "remaining binding": "84%"}
{"target": "MAPK7 (Homo sapiens, UniProt Q13164)", "test": "binding", "conditions": "1 µM", "remaining binding": "100%"}
{"target": "IRAK4 (Homo sapiens, UniProt Q9NWZ3)", "test": "binding", "conditions": "1 µM", "remaining binding": "100%"}
{"target": "CAMK4 (Homo sapiens, UniProt Q16566)", "test": "binding", "conditions": "1 µM", "remaining binding": "93%"}
{"target": "MAP3K7 (Homo sapiens, UniProt O43318)", "test": "binding, competition with immobilised ligand", "conditions": "1 µM", "remaining binding": "100%"}
{"target": "PIKFYVE (Homo sapiens, UniProt Q9Y2I7)", "test": "binding", "conditions": "1 µM", "remaining binding": "100%"}
{"target": "AXL (Homo sapiens, UniProt P30530)", "test": "cell-free binding", "conditions": "1 µM", "remaining binding": "93%"}
{"target": "Cyclin-dependent kinase 4, with cyclin D1 (CDK4, Homo sapiens, UniProt P11802)", "test": "binding", "conditions": "1 µM", "remaining binding": "76%"}
{"target": "PLK3 (Homo sapiens, UniProt Q9H4B4)", "test": "binding", "conditions": "1 µM", "remaining binding": "100%"}
{"target": "RIOK2 (Homo sapiens, UniProt Q9BVS4)", "test": "binding", "conditions": "1 µM", "remaining binding": "100%"}
{"target": "CDK19 (Homo sapiens, UniProt Q9BWU1)", "test": "DiscoverX cell-free binding", "conditions": "1000 nM", "remaining binding": "100%"}
{"data": "Set 3", "Compound": "CC[C@@]1(c2ccccc2)C2=C(CC(C)(C)CC2=O)Nc2n[nH]cc21", "tested at": "1 µM"}
{"target": "CAMK4 (Homo sapiens, UniProt Q16566)", "test": "binding, competition with immobilised ligand", "remaining binding [%]": 100}
{"target": "LYN (Homo sapiens, UniProt P07948)", "test": "binding, competition with immobilised ligand", "remaining binding [%]": 100}
{"target": "BRSK2 (Homo sapiens, UniProt Q8IWQ3)", "test": "binding, competition with immobilised ligand", "remaining binding [%]": 100}
{"target": "MKNK1 (Homo sapiens, UniProt Q9BUB5)", "test": "kinase binding, KINOMEscan", "scale": "relative to: DMSO control", "remaining binding [%]": 100}
{"target": "MAP3K15 (Homo sapiens, UniProt Q6ZN16)", "test": "binding, competition with immobilised ligand", "remaining binding [%]": 85}
{"target": "MAP3K14 (Homo sapiens, UniProt Q99558)", "test": "binding, competition with immobilised ligand", "remaining binding [%]": 100}
{"target": "ROCK1 (Homo sapiens, UniProt Q13464)", "test": "kinase binding, KINOMEscan", "scale": "relative to: DMSO control", "remaining binding [%]": 91}
{"target": "BMP2K (Homo sapiens, UniProt Q9NSY1)", "test": "binding, competition with immobilised ligand", "remaining binding [%]": 58}
{"target": "CAMK1G (Homo sapiens, UniProt Q96NX5)", "test": "binding, competition with immobilised ligand", "remaining binding [%]": 93}
{"target": "WNK1 (Homo sapiens, UniProt Q9H4A3)", "test": "kinase binding, KINOMEscan", "scale": "relative to: DMSO control", "remaining binding [%]": 100}
{"target": "BTK (Homo sapiens, UniProt Q06187)", "test": "binding, competition with immobilised ligand", "remaining binding [%]": 97}
{"target": "Tyrosine-protein kinase ABL1, phosphorylated (ABL1, Homo sapiens, UniProt P00519, M351T)", "test": "kinase binding, KINOMEscan", "scale": "relative to: DMSO control", "remaining binding [%]": 100}
{"target": "EPHA5 (Homo sapiens, UniProt P54756)", "test": "binding, competition with immobilised ligand", "remaining binding [%]": 100}
{"target": "PIK3CA (Homo sapiens, UniProt P42336, E545A)", "test": "kinase binding, KINOMEscan", "scale": "relative to: DMSO control", "remaining binding [%]": 92}
{"target": "COQ8A (Homo sapiens, UniProt Q8NI60)", "test": "kinase binding, KINOMEscan", "scale": "relative to: DMSO control", "remaining binding [%]": 100}
{"target": "TEC (Homo sapiens, UniProt P42680)", "test": "binding, competition with immobilised ligand", "remaining binding [%]": 98}
{"target": "PRKG1 (Homo sapiens, UniProt Q13976)", "test": "binding, competition with immobilised ligand", "remaining binding [%]": 100}
{"target": "MAP3K10 (Homo sapiens, UniProt Q02779)", "test": "binding, competition with immobilised ligand", "remaining binding [%]": 81}
{"target": "MARK4 (Homo sapiens, UniProt Q96L34)", "test": "kinase binding, KINOMEscan", "scale": "relative to: DMSO control", "remaining binding [%]": 100}
{"target": "CAMKK1 (Homo sapiens, UniProt Q8N5S9)", "test": "kinase binding, KINOMEscan", "scale": "relative to: DMSO control", "remaining binding [%]": 88}
{"target": "MAPK12 (Homo sapiens, UniProt P53778)", "test": "kinase binding, KINOMEscan", "scale": "relative to: DMSO control", "remaining binding [%]": 99}
{"data": "Set 4", "host": "female CD-1 mouse", "matrix": "plasma", "route": "intravenous", "dose": "1 mg/kg"}
{"SMILES": "Cc1ccc(O)c(C)c1-c1cnc2[nH]c(-c3cnc(N4CCC(CN5CCN(c6cc7c(cc6F)c(N6CCC(=O)NC6=O)nn7C)CC5)CC4)nc3)cc2c1C#N", "Vd": "2.1 L/kg"}
{"SMILES": "Cc1ccc(O)c(C)c1-c1cnc2[nH]c(-c3cnc(N4CCC(CN5CCN(c6ccc7c(c6)CN(C6CCC(=O)NC6=O)C7=O)CC5)CC4)nc3)cc2c1C#N (stereo not shown)", "Vd": "1.3 L/kg"}
{"SMILES": "Cc1ccc(O)c(C)c1-c1cnc2[nH]c(-c3cnc(N4CCC5(CC4)CC(N4CCN(c6ccc(N[C@H]7CCC(=O)NC7=O)cc6F)CC4)CO5)nc3)cc2c1C#N (single isomer, unassigned)", "Vd": "6.6 L/kg"}
{"SMILES": "Cc1ccc(O)c(C)c1-c1cnc2[nH]c(-c3cnc(N4CCC(CN5CCN(c6ccc7c(c6)C(=O)N(C6CCC(=O)NC6=O)C7=O)CC5)CC4)nc3)cc2c1C#N (stereo not shown)", "Vd": "3.6 L/kg"}
{"SMILES": "Cc1ccc(O)c(C)c1-c1cnc2[nH]c(-c3cnc(N4CCC(CN5CCC(c6ccc(NC7CCC(=O)NC7=O)cc6F)CC5)CC4)nc3)cc2c1C#N (stereo not shown)", "Vd": "4.2 L/kg"}
{"SMILES": "Cc1ccc(O)c(C)c1-c1cnc2[nH]c(-c3cnc(N4CCC(CCN5CCN(c6ccc(NC7CCC(=O)NC7=O)cc6F)CC5)CC4)nc3)cc2c1C#N (stereo not shown)", "Vd": "4.5 L/kg"}
{"data": "Set 5", "Compound": "CCN1/C(=C/C=C2\\CCCC(/C=C/C3=[N+](CC)c4ccccc4C3(C)C)=C2NCCCCCCCCN2CCC(Nc3nc4ccccc4n3Cc3ccc(F)cc3)CC2)C(C)(C)c2ccccc21", "cell line": "U-87 MG", "tested at": "concentration not given", "relative to": "DMSO"}
{"test": "refers to: SLC29A1 mRNA", "log2 fold change": -1.65}
{"test": "refers to: HOPX mRNA", "log2 fold change": -1.87}
{"test": "refers to: MYO7B mRNA", "log2 fold change": -3.47}
{"test": "refers to: MYLIP mRNA", "log2 fold change": 2.09}
{"test": "refers to: PI4K2A mRNA", "log2 fold change": 0.902}
{"test": "refers to: PCDH9 mRNA", "log2 fold change": 1.77}
{"test": "refers to: GNG2 mRNA", "log2 fold change": -1.83}
{"test": "refers to: SPTLC3 mRNA", "log2 fold change": -2.54}
{"test": "refers to: LONRF2 mRNA", "log2 fold change": 2.26}
{"test": "refers to: WNT5B mRNA", "log2 fold change": -2.44}
{"test": "refers to: KIAA0895L mRNA", "log2 fold change": -0.904}
{"data": "Further values, each from its own experiment"}
{"Structure (SMILES)": "N#C/C=C/CNCCCCN1c2ccccc2CCc2ccc(Cl)cc21", "tested on": "NCI-H292", "test": "cell growth or viability, ATP luminescence", "endpoint": "IC50", "result": "5.28 µM"}
{"Structure (SMILES)": "CCOC(=O)/C=C/CNCCCCN1c2cc(Cl)ccc2CCc2cnn(C)c21.O=C(O)/C=C\\C(=O)O", "system": "mouse plasma", "conditions": "5 µM", "endpoint": "half-life", "result": "6 ± 0.1 min"}
{"Structure (SMILES)": "Cn1ncc2c1N(CCCCNC/C=C/C#N)c1cc(Cl)ccc1CC2.O=C(O)/C=C\\C(=O)O", "system": "human plasma", "conditions": "5 µM", "endpoint": "half-life", "result": "90.3 ± 10.7 min"}
{"Structure (SMILES)": "CCONC(=O)/C=C/CNCCCCN1c2cc(Cl)ccc2CCc2cnn(C)c21.O=C(O)/C=C\\C(=O)O", "tested on": "NCI-H292", "test": "CellTiter-Glo", "conditions": "0.05 µM, 72 h", "scale": "higher = more viable cells", "endpoint": "luminescence", "result": "4.01e+06 a.u. and 3.89e+06 a.u. and 3.69e+06 a.u."}
{"note": "A few entries again (set 5):"}
{"test": "refers to: GNG2 mRNA", "log2 fold change": -1.83}
{"test": "refers to: KIAA0895L mRNA", "log2 fold change": -0.904}
{"test": "refers to: SPTLC3 mRNA", "log2 fold change": -2.54}
